Measurements from different studies.
Parts stem from different laboratories: compare values within a part only. Positions count from the first letter of the parent shown.

Set 1
Target: Centromere-binding protein 1, full length, His-tagged (CBF1, Saccharomyces cerevisiae, UniProt P17106, residues 1-351)
Chain of UniProt P17106 (whole entry, looked up): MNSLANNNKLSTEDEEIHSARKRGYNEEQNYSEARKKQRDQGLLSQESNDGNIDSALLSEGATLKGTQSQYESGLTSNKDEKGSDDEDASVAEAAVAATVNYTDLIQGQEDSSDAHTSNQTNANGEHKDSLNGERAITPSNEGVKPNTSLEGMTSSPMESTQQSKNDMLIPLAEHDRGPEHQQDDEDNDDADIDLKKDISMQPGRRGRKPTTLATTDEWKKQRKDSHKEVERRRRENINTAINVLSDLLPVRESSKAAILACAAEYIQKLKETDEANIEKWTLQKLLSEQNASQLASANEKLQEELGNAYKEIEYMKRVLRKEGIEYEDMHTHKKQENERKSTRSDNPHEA
Method: competition protein-binding microarray
Form: double-stranded DNA, one strand shown
Sample: in vitro
Tested at: 2 µM
Setting: whole 60-bp probe, lowest competitor level
Together with: Pho4 competitor, 0.05 µM
Reading: higher = stronger binding
Endpoint: fluorescence intensity
CTAACGAAGGTTTAACACGTGTTTTACAAGCCAAGTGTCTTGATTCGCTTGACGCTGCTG: 1670 a.u.
TCCAGCAGAACCAGCCATGTGCGAAGAAAAACAATTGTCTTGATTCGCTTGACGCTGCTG: 108 a.u.
AAAGCGGTAATTTGTGTCGTGGGTGCAGATATCTATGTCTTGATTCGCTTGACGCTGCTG: 86.6 a.u.
TGCGCAACAACTTGTCACGCTACTTTATGTCTAGAAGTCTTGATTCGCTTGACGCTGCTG: 234 a.u.
AATCACAGATTGTTAGCCTGATGTATACAGTAAATTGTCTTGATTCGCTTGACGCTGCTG: 76.6 a.u.
CTGGACGGCAGAAAGCACGCAGGCAGGGGGCCTCTGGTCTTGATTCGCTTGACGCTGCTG: 63.3 a.u.
TGCGCAACAACTTGACTTGTGGGTGTATGTCTAGAAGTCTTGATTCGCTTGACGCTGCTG: 77.2 a.u.
CTAACGAAGGTTTGAGCAGTGGGTGACAAGCCAAGTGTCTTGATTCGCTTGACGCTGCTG: 79.5 a.u.
TGCTTCTTTTTCCTTCACGTGTGGAGCCAAGTGCGGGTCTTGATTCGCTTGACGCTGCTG: 882 a.u.
CCCATTGAATTCGGGAATGTGCGGGTTTCAGATTGCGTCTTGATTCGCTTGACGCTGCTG: 67.1 a.u.
TATGTATGCCTATTTCACATGTTACTAACTGAAGACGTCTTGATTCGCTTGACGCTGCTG: 146 a.u.
CTTCTGTAAATTTACCACGTGTTTTGACGCGCCCCGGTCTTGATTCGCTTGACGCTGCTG: 1320 a.u.
CGGGAACACTACGCCAACGTGATGGGCAATTGTGCTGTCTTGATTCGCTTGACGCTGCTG: 229 a.u.
CTTCTGTAAATTTGTCCCGTGGGTGGACGCGCCCCGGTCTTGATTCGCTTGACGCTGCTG: 119 a.u.
AGATGTAACCCAACCGTTGTGACGGTCCAAGGTACCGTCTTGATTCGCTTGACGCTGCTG: 89 a.u.
CCTATGTATTACCATCACGTGGGTAGGGAAGACTACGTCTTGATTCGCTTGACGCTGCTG: 3590 a.u.
CTAACGAAGGTTTGAGGAGTGGGTGACAAGCCAAGTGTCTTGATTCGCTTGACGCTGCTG: 60.7 a.u.
CTTCTGTAAATTTGAAACGTGGGTGGACGCGCCCCGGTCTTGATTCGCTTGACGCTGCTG: 96.3 a.u.
TGTTCACCCTCCTCTCACGTGTATCTGACTCGTATTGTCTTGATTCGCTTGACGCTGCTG: 888 a.u.
CGGGGTTAAGTTTGGACGGTGGGTGGCTTGCAGCAGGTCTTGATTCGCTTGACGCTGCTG: 59.7 a.u.
AAAGCGGTAATTTGTCACAAAACTTCACATATCTATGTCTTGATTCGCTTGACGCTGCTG: 96.2 a.u.
CGGGGTTAAGTTTGGGAGGTGGGTGGCTTGCAGCAGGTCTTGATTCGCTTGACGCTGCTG: 71.3 a.u.
CATACCCAACCTTTTCACGTGCAGTAAGATATTTGTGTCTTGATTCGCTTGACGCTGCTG: 897 a.u.
CTTGGGCCCTATCGGCACGCTAAAGATGCTTGTGGAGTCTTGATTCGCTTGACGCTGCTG: 71.3 a.u.

Set 2
Target: ABI1, truncated, D143A, DHFR fusion (Arabidopsis thaliana)
Method: DHFR PCA, deep sequencing
Sample: yeast
Setting: methotrexate growth selection, single substitutions
Together with: (+)-ABA 0.39 µM
Reference: wild-type fitted maximum
Reading: higher = stronger binding
Endpoint: relative binding score
Parent: PYL1, truncated, DHFR fusion (Arabidopsis thaliana); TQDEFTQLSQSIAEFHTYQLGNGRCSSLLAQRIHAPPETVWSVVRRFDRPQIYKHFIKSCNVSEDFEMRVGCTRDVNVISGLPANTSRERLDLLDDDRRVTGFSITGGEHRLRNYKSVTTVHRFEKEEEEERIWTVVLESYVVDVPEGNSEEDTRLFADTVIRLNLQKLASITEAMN; partner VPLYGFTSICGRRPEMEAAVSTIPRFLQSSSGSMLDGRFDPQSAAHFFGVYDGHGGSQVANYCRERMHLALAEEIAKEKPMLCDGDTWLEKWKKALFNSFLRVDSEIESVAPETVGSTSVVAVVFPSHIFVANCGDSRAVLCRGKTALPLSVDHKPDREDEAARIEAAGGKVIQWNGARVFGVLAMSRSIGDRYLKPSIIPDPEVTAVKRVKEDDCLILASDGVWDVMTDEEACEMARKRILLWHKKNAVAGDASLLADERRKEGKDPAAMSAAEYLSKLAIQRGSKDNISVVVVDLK
S26C: 36.9%
D96N: 1.93%
I79N: 7.28%
I79H: 35.4%
E147I: 17.7%
S140L: -6.06%
Y115L: -6.98%
E127W: 20.9%
V137Q: -10.1%
R46E: -4.86%
H122L: -2.19%
H34W: 24.6%
E147L: 19.4%
I33D: -3.56%
E64C: 24%
I52S: 23%
R113F: 1.07%
T173S: 29.9%
D3A: 40.4%

Set 3
Target: RING finger protein unkempt homolog, zinc fingers 1-6, GST-SBP tag (UNK, Homo sapiens, UniProt Q9C0B0, residues 30-357)
Method: RNA Bind-n-Seq
Form: RNA
Sample: in vitro
Tested at: not given
Setting: RNA with constant flanks, ends assumed
Reference: input RNA pool
Reading: higher = stronger binding
Endpoint: bound/input enrichment
Construct (chain): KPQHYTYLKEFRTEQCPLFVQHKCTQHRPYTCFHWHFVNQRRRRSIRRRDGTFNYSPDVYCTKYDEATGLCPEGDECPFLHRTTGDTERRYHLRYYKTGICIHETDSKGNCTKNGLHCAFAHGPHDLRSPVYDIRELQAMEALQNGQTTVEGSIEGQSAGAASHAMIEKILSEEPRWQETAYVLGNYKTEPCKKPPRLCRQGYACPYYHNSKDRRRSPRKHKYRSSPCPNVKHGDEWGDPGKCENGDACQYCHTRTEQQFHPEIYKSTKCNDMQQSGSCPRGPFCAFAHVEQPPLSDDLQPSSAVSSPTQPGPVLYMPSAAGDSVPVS
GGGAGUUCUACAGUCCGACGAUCGUCCCAGUCUCAGACGCGGCUAAAGCGCUGGGGUCUGAGAAGGAAAGCGACCACGGUGCUCCGGUGUCUUGAAGGAUCAGAGGUACCUAAGGUUCAACCUGUCGAGGAGGCAGUGGAUAUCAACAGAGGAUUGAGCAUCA: 0.157 ratio
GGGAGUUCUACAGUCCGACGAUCAGAGAAGAGUUGGUUGAUCGUGUUUUUGAUGAAAGUCUCAACUUCCGAAAGAUACCUCCAUCCGUUCAUUCUAAAACACCAGAAGGAAACAACGGUCGGUCUGUUGACUCGAGGCCUCAGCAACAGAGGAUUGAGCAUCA: 0.137 ratio
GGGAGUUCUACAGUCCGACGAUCUCAGUUAAGUUGUCAGAAAACAUGAAGGCAUCUUCCUUUAAAAAGCUACAGAAGUUCUAUACCGACCCAUACAAGCUGCUGCCGCUGCAGAGGUUUCUGCCUCGUCCUCCUGGUGAGAAACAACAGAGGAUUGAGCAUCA: 0.2 ratio
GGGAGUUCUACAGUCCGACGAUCAUCUUUUGGUUAUUCUAAGCCCUUUGCCAUCAAUGAUCAUAUCAAUUGGCAGUGACUUUGUACCGAGAAUUUAAGUAGAAAAGUUGCAGAUGUAUUGACUGUACCACAGACACAAUAUGUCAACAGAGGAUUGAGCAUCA: 0.125 ratio
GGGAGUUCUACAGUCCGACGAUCCUACCCUUGGCACAGGCCUCCAGUGAGCCUGUUCUGUUUCAGAAGAAAGGGGAAGCAGUGCCGCAUUUUUUGUUUGGUCUCUUAAAAAUGUGGUUAAAUCCACUAUUUUUUGCUCCUGUACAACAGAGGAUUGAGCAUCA: 0.111 ratio
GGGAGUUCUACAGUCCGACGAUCCUGGCUUAGAUAAUAUGGCUACACACUUAAGUCAGCAUGAAACUCAUUCUUGCCGAGUUCCCGCCGAGCAAGUUUCUGUUUGUAUCCCAACUUCUGAACGUCUUUCUGAAAUAAAAACUGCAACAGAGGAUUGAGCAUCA: 0.51 ratio
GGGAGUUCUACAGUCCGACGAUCGCUUUUAAUGGAGUUAUGUUUGGAGACAGGCCACUGAAAAUAAAUCACUCCAACAAUGCAACCGUAAAACCUCCUGAGAUGACACCUCAGGCUGCAGCUAAGGAGUUAGAAGAAGUAAUGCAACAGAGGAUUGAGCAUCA: 1.12 ratio
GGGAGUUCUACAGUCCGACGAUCUGCAUUCGCAAAGCAAAGAUUUCCGCUGUUGCUUUCCGGAAAGCCUUUUGCCACCACAAGCCCGCCGAACUUGAUGCCACGGGUGUGAAUGCUGACAUCACUAUCACAGACAUCAUAAGUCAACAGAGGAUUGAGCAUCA: 0.162 ratio
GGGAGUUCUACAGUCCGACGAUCGGCCAGGAACAGUCUUCACGGGGACAAAGAAUUUUAUCUAUUCCAAUUUGGCCCCCAAACCCCGGUAUCUCACAGAACUGUGUGUAUGAGGUACAGCAGGUACCAAAAGUAGAAAAGACACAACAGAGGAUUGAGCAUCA: 0.27 ratio
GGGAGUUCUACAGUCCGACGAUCUCGUGUCAGGGCAGGCUUCCUGUCUCAGCCUUCUGAGUAUUGGGAUUACAGUUGUCUGCCCCGCUGAUGUCCUGUCUUCUUUCAGCAGAGGCAUGUGCACCCAACAUGCACAUGAUUAAGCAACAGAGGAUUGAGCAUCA: 0.0971 ratio
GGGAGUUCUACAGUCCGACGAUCAGUUAGAAAUUAAGUCUACUGAAAAAUUUACAUUUUGAGUCAGGUUUUGUGUCAGUACUUCCGCAGUUUUUGAGAAUGUGUUUGAUAUCACAGUGUUUGUAAAUUCUAUGAAAAAUGCAUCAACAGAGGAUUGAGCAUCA: 0.476 ratio

Set 4
Target: RNA binding protein fox-1 homolog 2, RRM domain, GST-SBP tag (RBFOX2, Homo sapiens, UniProt O43251-10, residues 100-194)
Method: RNA Bind-n-Seq
Form: RNA
Sample: in vitro
Tested at: 365 nM
Setting: natural RNA segment, single round, ends assumed
Reference: no-protein control
Reading: higher = stronger binding
Endpoint: RBNS enrichment (R)
Residues (chain): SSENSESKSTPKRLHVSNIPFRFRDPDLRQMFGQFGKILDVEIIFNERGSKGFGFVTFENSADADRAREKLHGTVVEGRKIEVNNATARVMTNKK
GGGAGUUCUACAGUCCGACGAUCUUCAACACAAGCAAAGCAGGUUACAUGGUAAUGUUCAUUCAGUAUAUUUCUUGUUUGUGAAAUUGAAACCUCUAUAGGCAUCAUAUGCUUCUUGUCUUUAACAAAGUCUUUGGAAUUCUCGGGUGCCAA: 0.542
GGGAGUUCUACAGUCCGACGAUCAUUGUGCCUUUUAAUUAGAGGUCUAGAAAGUUCACCUGAACCCACACCCCCUUCUUCCUGAGAAUUCUGGUGCCUCUAAAGCCCCUCCUUGCCACUCAGGGUUUUAGUGGUGGAAUUCUCGGGUGCCAA: 0.308
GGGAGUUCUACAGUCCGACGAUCGUCUUUGUGUGGCAAAGAUGUUCCCUUGUAGGCCCCUUUCAGGUAACCGUCUUCACAAUGUAUUUUCAUCACAGUUUAAGGAGCAUCAGCCGCUUCUCAAGUGGGUAGGGUGGAAUUCUCGGGUGCCAA: 0.332
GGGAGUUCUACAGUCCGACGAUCUAAGAUGACUCUCCAUCUAGAUCAAGUCUUAGCAUCAUACGCAUCACUGUGAACGGAGGGAAGUGCGUGGGGUCAGGUGACCUGACUCCAACGAUUUGGUCAAGGAGGUUUGGAAUUCUCGGGUGCCAA: 0.676
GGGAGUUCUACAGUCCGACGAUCGGCGAGUCUAAUUGUUAGACAUUUCUUACUUAUAGUGAUUGGAUUCUGCUUUCCUAUGACUUCUGCCUACUGGGUCUUGUUUUGUUCCUUGGAUCGAAACAGAACCGUUUUGGAAUUCUCGGGUGCCAA: 0.202
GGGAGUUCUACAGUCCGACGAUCAAGAAAAAAUUGUACAGGGAGUUUAGUGAAUUUUCCAUCAGGUUGGCCAUUACUUUCUUUCUCUAAAGUCUCAGGAUGUCUGGAAGCAAGGAAAGACAAAAGACUUGAAGUGGAAUUCUCGGGUGCCAA: 0.651
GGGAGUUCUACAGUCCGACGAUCAAAUUAUGCAGGUGAUAACUUUAUGGUUUGGGACUGUUUAUGGGCUCUUUUAAGUGAAUUUUCAAAUGAAAUGAACUAUGCUUAUUGCUGGCACAUUGAUCCCAUUUCUGUGGAAUUCUCGGGUGCCAA: 0.621
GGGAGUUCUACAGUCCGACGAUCAUCACUUUUACAGAAAACAAGGUCCAGUAAUAGCAAGUCUUAGUACAUCCUCACUUUUAUUAUAAAUGGGUGUUUUUUCAUAAUUUUUACUGACGCUCAGUAACCAUGCAUGGAAUUCUCGGGUGCCAA: 1.6
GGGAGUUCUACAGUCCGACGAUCAUAGCUAGGCUAAGUCAAGAUCAACAGUCCGGGGUUGGUGGUGUUGGAUGAAACAUUCAUUUUUACCUUGUGGAUGCUAGUGCUGUAGAGUUCACUGUUGUACACAGUCUUGGAAUUCUCGGGUGCCAA: 0.317
